Measurements gathered from unrelated publications.
Every numbered part comes from another study and shows a few of its results, in no order.

Series 1
Target: RING finger protein unkempt homolog, zinc fingers 1-6, GST-SBP tag (UNK, Homo sapiens, UniProt Q9C0B0, residues 30-357)
UniProt Q9C0B0, sequence (30-357, looked up): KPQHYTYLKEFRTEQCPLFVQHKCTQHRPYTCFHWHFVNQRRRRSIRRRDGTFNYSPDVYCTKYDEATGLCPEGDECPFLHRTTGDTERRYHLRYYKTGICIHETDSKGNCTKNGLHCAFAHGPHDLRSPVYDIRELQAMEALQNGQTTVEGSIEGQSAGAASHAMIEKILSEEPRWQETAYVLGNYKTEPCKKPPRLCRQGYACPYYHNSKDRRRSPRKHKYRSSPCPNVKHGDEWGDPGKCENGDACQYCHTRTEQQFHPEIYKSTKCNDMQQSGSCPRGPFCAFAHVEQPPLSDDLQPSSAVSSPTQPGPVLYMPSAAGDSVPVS
Technique: RNA Bind-n-Seq
Form: RNA
Medium: in vitro
Tested at: not given
Setting: RNA with constant flanks, human-mouse chimeric sites, ends assumed
Relative to: input RNA pool
Reading: higher = stronger binding
Sequence	bound/input enrichment [ratio]
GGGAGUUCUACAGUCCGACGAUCCACACACUCUUCUGUGGGACCCUCAUCUUGCAGGCCCGGGCCUAUGUGGGACCGCACGUCCUGGCAGUGGUGACUCGCACAGGGUUCUGCACGGCAAAAGGGGGCCUGGUGAGCUCCAUCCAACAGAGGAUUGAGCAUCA	0.156
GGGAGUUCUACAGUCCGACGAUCCUGUUUUGACAGCCACACAAUCUUGGCAUGUAUUAAGGAAAAAAAAAAUCCCUGUUCAAGUAGUUUUUCCACCUAUCAGCACUGAGUAAAUGCCAUAAAUCCAUUGAAAUGGUCUAAAUACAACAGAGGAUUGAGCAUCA	0.263
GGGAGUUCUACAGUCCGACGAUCAGGAGGAGGUUAAAGGGUGAGAGUGGGGUGGAAGACUGUGUCAUGGCCCUAGAAACCUUGUUUAGUGUCCUGCUUUCUCUGUGCAGACUGAUGGCCCCUUACACGCCCUUUCUGACUGAGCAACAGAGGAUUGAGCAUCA	0.125
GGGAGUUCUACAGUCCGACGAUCUGUAGUUUCUUGAUUUAUCAUUUUUCUCUUUUCUUUCUUUCCUUUAGGAAAAGCCUAAAGAUUAGACUGUAAGAAAAACAGAAGCCAGCCAUGUUUCACCUGUGUUACAGGUAUUUCGUCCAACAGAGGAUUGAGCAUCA	0.22
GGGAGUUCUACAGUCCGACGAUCUGUAGUUUCGCGGUUCAGGCUUUGUGUGUAGUUCACUUACGGUAUUAAAUUAUUAUUCUGCUUAGCUUAUAAUAAGGAUAAUUGCAUUUAAAGAGGUUACUGAAUGUUACUCUGAAACUUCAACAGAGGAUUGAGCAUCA	0.552
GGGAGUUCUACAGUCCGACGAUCGAUCUCGGGCCCUCCCCAGGGGCCUCCUUUCGUAUAGUCACUGCUUCUGCUACGGAUACUUUCAGCUGCAACUCCCUACUGGGUGGGGCACCCAUUUCAGGCAGAAGGUUUUGGUACCCUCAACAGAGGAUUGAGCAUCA	0.128
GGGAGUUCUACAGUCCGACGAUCGACUUGGGACCGUCCUGGGCUAGUACAAAUAGCGGCAGUGGAGGCUCGAGAGGAAAGUUUGUUAGUGAGGCAGUGGUUAGAGGCCGUCAUGUACGGUCCUUUACUCGAUAGAUGUGUUCUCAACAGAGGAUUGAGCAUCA	0.825

Series 2
Target: Interferon regulatory factor 7, full length, phosphomimetic (IRF7, Homo sapiens, UniProt Q92985, residues 1-503, S101K/S471D/S472D/S475D/S476D/S477D/S483D/S484D/S487D)
Technique: protein-binding microarray
Form: double-stranded DNA, one strand shown
Medium: in vitro
Tested at: 250 nM
Setting: 60-bp whole probe
Together with: salmon DNA 0.4 mg/ml
Relative to: random background probes
Reading: higher = stronger binding
Constant ends, left off below: GCCTAGCAC … GTCTTGATTCGCTTGACGCTGCTG
Residues (chain): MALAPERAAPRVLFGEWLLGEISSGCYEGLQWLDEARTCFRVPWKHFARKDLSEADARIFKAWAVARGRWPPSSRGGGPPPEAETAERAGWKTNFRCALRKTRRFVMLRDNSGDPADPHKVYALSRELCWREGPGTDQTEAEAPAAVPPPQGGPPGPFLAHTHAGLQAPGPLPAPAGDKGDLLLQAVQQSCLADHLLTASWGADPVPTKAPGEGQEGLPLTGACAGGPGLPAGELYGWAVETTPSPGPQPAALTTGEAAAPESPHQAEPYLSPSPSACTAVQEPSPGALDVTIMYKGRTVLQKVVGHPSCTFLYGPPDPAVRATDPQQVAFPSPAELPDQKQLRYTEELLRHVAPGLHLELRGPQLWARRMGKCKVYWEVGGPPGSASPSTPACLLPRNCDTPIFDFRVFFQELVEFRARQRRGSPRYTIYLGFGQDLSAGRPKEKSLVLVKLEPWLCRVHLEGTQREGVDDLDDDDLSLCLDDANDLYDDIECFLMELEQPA
Sequence	log fluorescence [z-score]
CCTCTGCTCCTCTTTTTTTGGGTGCTA	-0.126
TCACTTCTCGAGTGCCGGACTGTGCTA	1.07
TTAGGTTTCGGACTGGGCTAGTGCTAG	3.42
GACGGACTGGACTATCGGCACGTGCTA	-0.87
GACGGACTGGACTTTCGGTACGTGCTA	-0.306
TTGAGGTTTTCTCTGGTTCTGTGCTAG	-0.0895
TCAGGTTTTACTTTCTAACTGTGCTAG	1.05
GAAGGACTGCTACTGCTGACGTGCTAG	-0.577
GGTTTTTTTTTAATTGAAATGTGCTAG	1.95
GACGATTTCGGGTTTTGAGACGTGCTA	1.11
TCATTTTACTTTCTGAAACTGTGCTAG	2.1
GACGAACTGAGACTGGAGAGGTGCTAG	-0.321
TTCGATCTCAGTATCGATTAGTGCTAG	0.857
GGAAGCAGTGAGAAGGTGGCGTGCTAG	-0.638
TTAGGTATCGGTCACGGTTAGTGCTAG	0.545

Series 3
Target: Ras GTPase-activating protein-binding protein 1, RRM domain (G3BP1, Homo sapiens, UniProt Q13283)
UniProt Q13283, sequence (whole entry, looked up): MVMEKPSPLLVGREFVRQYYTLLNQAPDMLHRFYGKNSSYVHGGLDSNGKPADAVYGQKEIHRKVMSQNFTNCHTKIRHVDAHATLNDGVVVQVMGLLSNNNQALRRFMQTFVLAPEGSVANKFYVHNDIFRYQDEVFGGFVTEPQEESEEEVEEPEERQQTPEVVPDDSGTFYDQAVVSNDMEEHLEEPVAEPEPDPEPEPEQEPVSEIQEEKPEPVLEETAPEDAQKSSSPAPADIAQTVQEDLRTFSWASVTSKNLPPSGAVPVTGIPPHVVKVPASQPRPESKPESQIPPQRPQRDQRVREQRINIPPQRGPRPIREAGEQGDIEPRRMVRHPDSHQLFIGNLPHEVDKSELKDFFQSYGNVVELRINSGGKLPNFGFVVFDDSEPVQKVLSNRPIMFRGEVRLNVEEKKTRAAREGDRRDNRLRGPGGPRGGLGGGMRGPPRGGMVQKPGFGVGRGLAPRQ
Technique: RNA Bind-n-Seq
Form: RNA
Medium: in vitro
Tested at: 1 µM
Setting: whole 134-nt RNA, ends assumed
Together with: 150 mM KCl
Relative to: input library
Reading: higher = stronger binding
Sequence	log2 enrichment
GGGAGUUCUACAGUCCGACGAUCUACCAAUUGGCCUUUAUUGACUGUAUCCAAAGGAUUUUUUGAAGGCACCAUUGCCAGCAAAGGUAAGUACCUAUUUCUCCCAUAGCACUUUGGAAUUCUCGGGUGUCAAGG	-0.215
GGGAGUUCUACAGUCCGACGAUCAGUCCUGUGCUACACAUCGUAUGUACCGAAUCGGGAAAAGGGAAAAGGGGAAAAGGGAAAGUAUUAUGUUACGCCGUUCGGAUCUGCACUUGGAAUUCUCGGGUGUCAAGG	0.51
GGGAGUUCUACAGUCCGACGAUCCCUGUGCUACACAUCGUAUGUACCGAAUCGGGUUUUUUUGGGUUUUUUUGGGUUUUUUUGGAAAGUAUUAUGUUACGCCGUUCGGAUCUGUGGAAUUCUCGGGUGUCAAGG	-0.075
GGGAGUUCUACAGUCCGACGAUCUCCAGUCUAGCUUUGGAGAAGCGCCAACCUGCUCACUGCCGCCGACCAGACUGCAUGUUUGGUUGUACUUGUUUGAAAAGAAAAGUUGUAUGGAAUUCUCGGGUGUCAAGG	-0.0802
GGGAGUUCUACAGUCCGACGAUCCUGUGCUACACAUCGUAUGUACCGAAUCGGGGAAAAAAAGGAAAAAAAGGGGAAAAAAAGGGAAAGUAUUAUGUUACGCCGUUCGGAUCUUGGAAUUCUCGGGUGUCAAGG	0.21
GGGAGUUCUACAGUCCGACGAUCUCCUGUGCUACACAUCGUAUGUACCGAAUCGGGGAAAAAGGGGAAAAAGGGGAAAGGGGAAAGUAUUAUGUUACGCCGUUCGGAUCUGCAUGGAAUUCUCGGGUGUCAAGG	1.14
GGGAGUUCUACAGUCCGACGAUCCAAGUCCUGUGCUACACAUCGUAUGUACCGAAUCGGGUUUGGGAGGGUUUUUGGGAAAGUAUUAUGUUACGCCGUUCGGAUCUGCACUUCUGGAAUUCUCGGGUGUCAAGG	0.607
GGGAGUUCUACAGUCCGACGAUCAGUCCUGUGCUACACAUCGUAUGUACCGAAUCAAACCCCCAAACCCAAAUUUUUAAAAAAGUAUUAUGUUACGCCGUUCGGAUCUGCACUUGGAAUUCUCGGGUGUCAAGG	-0.128
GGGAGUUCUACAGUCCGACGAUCCUGUGCUACACAUCGUAUGUACCGAAUCGGUUUUUUUGGGGUUUUUUUGGGGUUUUUUUGGGAAAGUAUUAUGUUACGCCGUUCGGAUCUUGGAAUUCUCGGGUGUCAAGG	-0.219
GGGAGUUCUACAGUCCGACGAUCUGGCCCUGGUGGCAUGCGGGGAGGGAGAGGUGGCCUCAUGGAUCGUGGUGGUCCCGGUGGAAUGUUCAGAGGUGGCCGUGGUGGAGACAGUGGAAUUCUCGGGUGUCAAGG	0.886
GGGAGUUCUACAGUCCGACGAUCCACAGACAACACGCACCCACACAGACACAGAGGGAAGGGGUUGGGAUGGGGACAGGGUGCACAGCAGGGCGAGGUAGGACCCCAGCCCCUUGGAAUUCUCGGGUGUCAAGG	-0.269
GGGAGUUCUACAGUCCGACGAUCAGUCCUGUGCUACACAUCGUAUGUACCGAAUCGGGGAAAAAGGGGUGGGGAAAGGGGAAAGUAUUAUGUUACGCCGUUCGGAUCUGCACUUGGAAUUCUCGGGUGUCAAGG	0.924
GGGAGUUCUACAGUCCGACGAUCUAACUUUAGAGGAGGAUCUGAUGGAUAUGGCAGUGGACGUGGAUUUGGGGAUGGCUGUAAUGGGUAUGGAGGAGGACCUGGAGGUGGCAAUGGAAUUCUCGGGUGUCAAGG	-0.56
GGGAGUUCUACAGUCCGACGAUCGCAGGAAGUAAAAACAAAUGGAAAUGCUUCGGAUAGUGGCAGGGGUGGGGGUUGCUAAGGAAAGGGUGGGAUGGUAGUGGGUAAAGAGUUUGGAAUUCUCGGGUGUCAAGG	0.603

Series 4
Target: RNA binding protein fox-1 homolog 2, RRM domain, GST-SBP tag (RBFOX2, Homo sapiens, UniProt O43251-10, residues 100-194)
Technique: RNA Bind-n-Seq
Form: RNA
Medium: in vitro
Tested at: 365 nM
Setting: natural RNA segment, single round, ends assumed
Relative to: no-protein control
Reading: higher = stronger binding
Construct (chain): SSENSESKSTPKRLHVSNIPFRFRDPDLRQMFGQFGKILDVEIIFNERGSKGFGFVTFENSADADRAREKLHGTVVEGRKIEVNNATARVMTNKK
Sequence	RBNS enrichment (R)
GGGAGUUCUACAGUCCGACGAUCCCUUGCCUGCAGUGGGAGAGUUGCCCAGUGGUUCCCCAUCCCCCAUUAUAUUCUAAUGCUAAAUCACUUGGCAAGAGUGUAUUUUAAUGAUGCCUAAUUUCUCUAUGUUCUGGAAUUCUCGGGUGCCAA	1.14
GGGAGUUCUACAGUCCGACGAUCAUAGUUCGGGUCGGGGCCUUGGGUGGUCCUGCAUGGCCCGGGACUCAUCUCACGGACCCUCCGUUCUGCAUUAAGCCCCAGGUUCUCUUCUGGCUUUGAAAGGGCCCGAGUGGAAUUCUCGGGUGCCAA	0.907
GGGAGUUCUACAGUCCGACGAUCGCACAGGGUGAGACCCUUUUACACAGAAUGGUGGAGAGAAAAGAGAAUGCUGAAAAGUGGCUCAGAUGCAGAGUGUUCUGUGGAGAAACUGCAGCCCCACUUCUGUUUCCUGGAAUUCUCGGGUGCCAA	2.41
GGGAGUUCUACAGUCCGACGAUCACCUUGGGUUUGUGCAUGUUUUCUGCUGGGUGGGAUCUGAGGGUGAUUUCUCUUUUACCUGUACAUAUGCUAAGUAAACAGAAUUUUAAAGGCAUGCAUUUCUUACAAUCUGGAAUUCUCGGGUGCCAA	38.1
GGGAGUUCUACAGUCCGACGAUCCGUGGUCCUUAGGCUUACAAUGUGCACUGAAUCGUUUCAUGUAAGAAUCCAAAGUGGACACCAUUAACAGGUCUUUGAAAUAUGCAUGUACUUUAUAUUUUCUAUAUUUGUGGAAUUCUCGGGUGCCAA	20.5
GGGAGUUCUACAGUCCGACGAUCUUCCGCCAGCAGAGAGAUUGCAGCCUUCUUCCUGACUUCAGUGAACAGCGCUGGUAUGAGGAGGAGGAACCCCAGCUGCGGUGUGGUCCUGUGCACUACAGUCCAGAGGAUGGAAUUCUCGGGUGCCAA	0.316
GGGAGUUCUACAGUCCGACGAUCUGUGCCAAAAAUGUGUUUUCAAAGAAAAUCUUAUUUUCAUACUCAAGACUUUGUACCGUCACUCAUUUGUAUAAGUGCGCUUCGUCACUGCACGGGCCCUGCUCCUGCAAUGGAAUUCUCGGGUGCCAA	0.285
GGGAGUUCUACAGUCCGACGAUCCAGCAGCUGCUCGACAAGGGGCGCAGGGUGGCUGUCUUUGUUCCAGCACUGUUCAGGCUGCCUGUCAUCCCGGGCCUGCCAGCUCCCCUGAGUGAUGAGCACUUCCAAGCUGGAAUUCUCGGGUGCCAA	0.51
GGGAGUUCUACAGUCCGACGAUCCCCUUUGGCCUCAUGAAUGGGUUUCAUGAAUGGGCUUCAGUGGCUUAUAAACUCUGUAAAAUUCUAUUCUAAAUUUUGUACAUUUAUUUUGUUCCGGUUAAUUCCAGAAGUGGAAUUCUCGGGUGCCAA	0.522
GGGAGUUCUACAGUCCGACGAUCCUUGAAAGUUUUCAGAACCUCUUCCCCAGAAAGGAGACUAGAUUGCCUUUGUUUUGAUGUUUGUGGCCUCAGAAUUGAUCAUUUUCCCCCCACUCUCCCCACACUAACCUUGGAAUUCUCGGGUGCCAA	0.552
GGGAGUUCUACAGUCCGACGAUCGGUCGCCUUGUUGGUUCUGAGCCCUGGGGCUCUGACUUCUGGAUGUGCAUGUAGAACACAAGAAGACCCUUUUCUUCUGGAUCCUCUGCUAGCUACCAUCUAAACUGUCCUGGAAUUCUCGGGUGCCAA	2.34
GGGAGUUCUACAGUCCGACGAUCGGCCAGGCCCCUCUGUCCAGAAGGAGCUGCCCUGAGGACCAUCUUAGCGGCCCUGUCCUCUUUUUCCGCCCAUUCUCCCUCGGGUCUCCCCAGAGGGGCCGGCGGGGGCUUGGAAUUCUCGGGUGCCAA	0.291

Excerpt of the above (series 2):
Sequence	log fluorescence [z-score]
TCACTTCTCGAGTGCCGGACTGTGCTA	1.07
TTAGGTTTCGGACTGGGCTAGTGCTAG	3.42
GACGGACTGGACTATCGGCACGTGCTA	-0.87
GACGGACTGGACTTTCGGTACGTGCTA	-0.306
TTGAGGTTTTCTCTGGTTCTGTGCTAG	-0.0895
TCAGGTTTTACTTTCTAACTGTGCTAG	1.05
